# Experimental data collected from several papers.
# Each line is one published result; not all experiments were run side by side. ± gives the spread as reported.
# CHRM4: Muscarinic acetylcholine receptor M4 (CHRM4, Homo sapiens, UniProt P08173)
# Chain of UniProt P08173 (whole entry, looked up): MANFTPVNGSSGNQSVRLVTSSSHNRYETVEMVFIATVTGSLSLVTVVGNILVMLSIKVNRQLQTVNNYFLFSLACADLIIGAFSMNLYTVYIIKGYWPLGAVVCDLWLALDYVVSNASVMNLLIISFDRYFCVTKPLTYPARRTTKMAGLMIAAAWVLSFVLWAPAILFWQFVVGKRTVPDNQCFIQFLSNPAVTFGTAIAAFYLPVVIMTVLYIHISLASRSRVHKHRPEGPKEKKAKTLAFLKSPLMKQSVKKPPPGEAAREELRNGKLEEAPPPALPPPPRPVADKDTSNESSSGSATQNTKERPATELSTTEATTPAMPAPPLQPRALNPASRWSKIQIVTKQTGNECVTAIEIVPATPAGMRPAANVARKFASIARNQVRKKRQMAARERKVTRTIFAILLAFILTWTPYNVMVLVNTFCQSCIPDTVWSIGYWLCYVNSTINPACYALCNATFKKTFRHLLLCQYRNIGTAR
# Chain of UniProt Q9HC35 (whole entry, looked up): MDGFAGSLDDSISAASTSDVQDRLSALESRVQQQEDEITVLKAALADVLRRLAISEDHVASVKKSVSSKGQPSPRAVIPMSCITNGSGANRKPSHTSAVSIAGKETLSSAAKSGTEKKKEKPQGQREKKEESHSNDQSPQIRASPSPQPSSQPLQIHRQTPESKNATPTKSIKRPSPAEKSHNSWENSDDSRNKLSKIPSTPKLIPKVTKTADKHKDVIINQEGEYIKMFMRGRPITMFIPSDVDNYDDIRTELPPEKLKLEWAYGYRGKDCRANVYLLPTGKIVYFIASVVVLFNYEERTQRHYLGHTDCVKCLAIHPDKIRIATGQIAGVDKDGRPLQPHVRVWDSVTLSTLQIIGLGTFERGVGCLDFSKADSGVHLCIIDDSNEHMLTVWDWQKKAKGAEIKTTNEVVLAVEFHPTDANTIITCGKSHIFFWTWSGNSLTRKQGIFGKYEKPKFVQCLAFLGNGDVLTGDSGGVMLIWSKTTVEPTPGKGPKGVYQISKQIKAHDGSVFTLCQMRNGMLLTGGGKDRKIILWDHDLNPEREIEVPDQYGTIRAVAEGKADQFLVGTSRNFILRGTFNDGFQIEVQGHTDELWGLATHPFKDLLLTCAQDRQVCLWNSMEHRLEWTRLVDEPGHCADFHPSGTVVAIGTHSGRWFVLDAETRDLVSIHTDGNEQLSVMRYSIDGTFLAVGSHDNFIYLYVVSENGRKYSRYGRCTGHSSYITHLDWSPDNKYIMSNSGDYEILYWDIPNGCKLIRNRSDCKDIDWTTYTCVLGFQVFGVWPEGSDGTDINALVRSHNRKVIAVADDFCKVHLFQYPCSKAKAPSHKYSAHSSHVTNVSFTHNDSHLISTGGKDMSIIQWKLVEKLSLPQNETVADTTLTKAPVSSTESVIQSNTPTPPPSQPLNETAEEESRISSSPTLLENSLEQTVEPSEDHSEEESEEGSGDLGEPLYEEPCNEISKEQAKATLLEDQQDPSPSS
# Chain of UniProt Q9UM73 (whole entry, looked up): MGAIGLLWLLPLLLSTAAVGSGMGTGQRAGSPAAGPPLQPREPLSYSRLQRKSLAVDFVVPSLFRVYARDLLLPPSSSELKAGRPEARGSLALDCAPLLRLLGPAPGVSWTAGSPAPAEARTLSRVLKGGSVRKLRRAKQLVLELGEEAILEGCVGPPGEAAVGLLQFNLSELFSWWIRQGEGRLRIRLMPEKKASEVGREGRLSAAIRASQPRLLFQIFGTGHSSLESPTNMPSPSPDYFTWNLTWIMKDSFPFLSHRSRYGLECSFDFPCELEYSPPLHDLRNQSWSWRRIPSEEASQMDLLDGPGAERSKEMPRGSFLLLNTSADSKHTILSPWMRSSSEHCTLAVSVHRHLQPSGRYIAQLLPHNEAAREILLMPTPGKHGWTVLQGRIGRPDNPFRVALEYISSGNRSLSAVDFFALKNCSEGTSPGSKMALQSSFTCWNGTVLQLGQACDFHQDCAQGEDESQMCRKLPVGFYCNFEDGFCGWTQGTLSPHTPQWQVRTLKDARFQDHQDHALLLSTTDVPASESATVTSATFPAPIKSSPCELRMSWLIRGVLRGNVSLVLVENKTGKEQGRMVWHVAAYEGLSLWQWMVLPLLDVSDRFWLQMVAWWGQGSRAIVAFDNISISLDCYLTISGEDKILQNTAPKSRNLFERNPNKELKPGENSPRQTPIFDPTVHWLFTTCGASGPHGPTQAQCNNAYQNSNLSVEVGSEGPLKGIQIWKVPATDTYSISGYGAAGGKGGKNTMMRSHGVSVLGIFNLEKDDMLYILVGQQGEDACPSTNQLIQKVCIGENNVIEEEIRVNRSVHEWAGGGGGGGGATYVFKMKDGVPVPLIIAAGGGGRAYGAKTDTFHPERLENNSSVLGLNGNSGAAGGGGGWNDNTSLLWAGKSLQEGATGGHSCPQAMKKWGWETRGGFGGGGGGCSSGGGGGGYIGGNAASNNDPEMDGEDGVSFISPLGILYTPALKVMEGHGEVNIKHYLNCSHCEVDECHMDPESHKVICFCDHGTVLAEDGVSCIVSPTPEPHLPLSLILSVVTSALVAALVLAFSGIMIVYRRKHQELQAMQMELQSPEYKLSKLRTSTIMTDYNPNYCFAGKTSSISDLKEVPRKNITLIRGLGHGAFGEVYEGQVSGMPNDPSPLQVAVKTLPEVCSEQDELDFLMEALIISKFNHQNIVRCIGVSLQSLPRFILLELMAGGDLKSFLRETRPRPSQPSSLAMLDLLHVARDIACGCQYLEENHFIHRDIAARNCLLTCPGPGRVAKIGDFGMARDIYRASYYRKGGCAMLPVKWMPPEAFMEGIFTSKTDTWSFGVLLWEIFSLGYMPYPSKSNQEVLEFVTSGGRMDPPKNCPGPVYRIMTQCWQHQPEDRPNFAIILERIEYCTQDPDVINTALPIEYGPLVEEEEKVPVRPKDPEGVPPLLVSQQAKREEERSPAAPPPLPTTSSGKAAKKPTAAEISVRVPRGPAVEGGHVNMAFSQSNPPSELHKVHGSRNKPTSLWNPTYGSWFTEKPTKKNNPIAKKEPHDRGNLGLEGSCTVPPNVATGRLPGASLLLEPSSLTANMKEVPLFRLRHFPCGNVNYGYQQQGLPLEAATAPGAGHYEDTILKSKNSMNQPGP
SMILES,tested on,test,test system,setting,measurement,result
COc1ccc(C(=O)Nc2cc(-c3ccc(I)cc3)no2)cc1 [iodine-125 labelled],,radioligand saturation binding,Parkinson's disease human brain homogenate,,Kd,3.5 nM
C[n+]1cn(C2OC(COP(=O)(O)OP(=O)([O-])C(F)(F)P(=O)(O)OP(=O)(O)OCC3OC(n4cnc5c(=O)[nH]c(N)nc54)C(O)C3O)C(O)C2O)c2nc(N)nc(O)c21 (stereo not drawn),,"cap-dependent translation, inhibitor",rabbit reticulocyte lysate,preincubated 60 min in lysate,IC50,4990 ± 410 nM
C[n+]1cn(C2OC(COP(=O)([O-])OP(=O)(O)OP(=O)(O)OCC3OC(n4cnc5c(=O)[nH]c(N)nc54)C(O)C3O)C(O)C2O)c2nc(NCc3cc(-c4ccccc4)no3)[nH]c(=O)c21 (stereo not drawn),,"cap-dependent translation, inhibitor",rabbit reticulocyte lysate,together with: ARCA-capped luciferase mRNA,IC50,570 ± 60 nM
CC[C@@](C)(NC)C(=O)NC(C)(C)C(=O)NC(C)(C)C(=O)NC(C)(C)C(=O)NCC(=O)NC(C)(C)C(=O)N1CCC[C@@H]1C(=O)N[C@@H](Cc1c[nH]c2ccccc12)C(=O)NC(C)(C)C(=O)N1C[C@H](O)C[C@@H]1C(=O)N[C@@H](C)C(=O)N[C@](C)(CC)C(=O)NCCCC(=O)N[C@@H](CC(C)C)C(=O)N[C@](C)(CC)C(=O)NC(C)(C)C(=O)N[C@](C)(CC)C(=O)N[C@H](CO)Cc1ccccc1,,"binding, ITC",10 to 30% methanol,"2 °C, together with: POPG",Kd,439 nM
Cc1csc(CCCNc2nc3c(c(=O)[nH]2)[n+](C)cn3C2OC(COP(=O)(O)OP(=O)([O-])OP(=O)(O)OCC3OC(n4cnc5c(=O)[nH]c(N)nc54)C(O)C3O)C(O)C2O)n1 (stereo not drawn),,"cap-dependent translation, inhibitor",rabbit reticulocyte lysate,together with: ARCA-capped luciferase mRNA,IC50,1870 ± 80 nM
COc1cc(N2CCN(C(=O)CN)CC2)ccc1Nc1ncc(Cl)c(Nc2ccccc2P(C)(C)=O)n1,"ALK tyrosine kinase receptor/Echinoderm microtubule-associated protein-like 4 (Homo sapiens, UniProt Q9HC35+Q9UM73)",degrader,,,DC50,142 nM
CCCCCCOc1ccc(C(=O)OCCN2CC=CCC2)cc1,CHRM4,"inositol phosphate accumulation, antagonist, Schild analysis",CHO co-expressing G15,together with: carbachol,Kb,275 nM
COc1ccc(CNc2nc3c(c(=O)[nH]2)[n+](C)cn3C2OC(COP(=O)(O)OP(=O)([O-])OP(=O)(O)OCC3OC(n4cnc5c(=O)[nH]c(N)nc54)C(O)C3O)C(O)C2O)cc1 (stereo not drawn),,"cap-dependent translation, inhibitor",rabbit reticulocyte lysate,together with: ARCA-capped luciferase mRNA,IC50,890 ± 120 nM
C[n+]1cn(C2OC(COP(=O)(O)OP(=O)([O-])C(Cl)(Cl)P(=O)(O)OP(=O)(O)OCC3OC(n4cnc5c(=O)[nH]c(N)nc54)C(O)C3O)C(O)C2O)c2nc(N)nc(O)c21 (stereo not drawn),,"cap-dependent translation, inhibitor",rabbit reticulocyte lysate,preincubated 60 min in lysate,IC50,1520 ± 100 nM
CCCCOc1ccc(C(=O)OCC[N+]2(C)CC=CCC2)cc1 (stereo not drawn),CHRM4,"inositol phosphate accumulation, antagonist, Schild analysis",CHO co-expressing G15,together with: carbachol,Kb,257 nM
CO[C@@H]1[C@H](O)[C@@H](COP(=O)(O)OP(=O)([O-])C(Cl)(Cl)P(=O)(O)OP(=O)(O)OC[C@H]2O[C@@H](n3cnc4c(=O)[nH]c(N)nc43)[C@H](O)[C@@H]2O)O[C@H]1n1c[n+](C)c2c(O)nc(N)nc21,,"cap-dependent translation, inhibitor",rabbit reticulocyte lysate,"60 min, 30 °C, no preincubation",IC50,950 ± 100 nM
CC[C@@](C)(NC(=O)[C@H](C)NC(=O)[C@H]1C[C@@H](O)CN1C(=O)C(C)(C)NC(=O)[C@H](Cc1c[nH]c2ccccc12)NC(=O)[C@H]1CCCN1C(=O)C(C)(C)NC(=O)CNC(=O)C(C)(C)NC(=O)C(C)(C)NC(=O)C(C)(C)NC(=O)[C@](C)(N)CC)C(=O)NCCCC(=O)N[C@@H](CC(C)C)C(=O)N[C@](C)(CC)C(=O)NC(C)(C)C(=O)N[C@](C)(CC)C(=O)N[C@H](CO)Cc1ccccc1,,"binding, ITC",10 to 30% methanol,"2 °C, together with: POPG",Kd,7700 nM

# Repeated from above:
SMILES,tested on,test,test system,setting,measurement,result
CCCCOc1ccc(C(=O)OCC[N+]2(C)CC=CCC2)cc1 (stereo not drawn),CHRM4,"inositol phosphate accumulation, antagonist, Schild analysis",CHO co-expressing G15,together with: carbachol,Kb,257 nM
CO[C@@H]1[C@H](O)[C@@H](COP(=O)(O)OP(=O)([O-])C(Cl)(Cl)P(=O)(O)OP(=O)(O)OC[C@H]2O[C@@H](n3cnc4c(=O)[nH]c(N)nc43)[C@H](O)[C@@H]2O)O[C@H]1n1c[n+](C)c2c(O)nc(N)nc21,,"cap-dependent translation, inhibitor",rabbit reticulocyte lysate,"60 min, 30 °C, no preincubation",IC50,950 ± 100 nM
